Experimental data from different studies.
Each line is one published result; not all experiments were run side by side. Several values in a cell are separate wells, animals, samples, runs or records. ± gives the spread as reported.
UCHL1: Ubiquitin carboxyl-terminal hydrolase isozyme L1 (UCHL1, Homo sapiens, UniProt P09936)
Voltage-dependent P/Q-type calcium channel subunit alpha-1A: Voltage-dependent P/Q-type calcium channel subunit alpha-1A (Homo sapiens, UniProt O00555)
BEST1: BEST1 (Homo sapiens, UniProt O76090)

`O=c1nc(SCc2cc(F)cc(C(F)(F)F)c2)nc(SCc2ccc3nc(Cl)ccc3c2)[nH]1` gave a decatenated DNA of 0.55% (DNA topoisomerase 2-beta (TOP2B, Homo sapiens, UniProt Q02880); decatenation; 31.25 µM, replicate 2).
With `CC(C)(C)OC(=O)[C@@H]1C[C@H]1C(=O)CCl` the labelling was 27.5% (UCHL1; covalent, intact protein LC-MS; 12.5 µM).
The inhibition of `O=C(C1CCCN(Cc2ccc(Cl)cc2)C1)N1CCCCC1.O=C(O)C(=O)O` (stereo not shown) is reported as -4% (Trypanosoma cruzi; reporter translation, Renilla luciferase mRNA translation; cell-free extract; 40 µM; reference: DMSO).
For `C1=C/COCc2cc(ccc2OCCN2CCCC2)Nc2nccc(n2)-c2cccc(c2)COC/1`, “percent of control” read 60% (Cyclin-dependent kinase 13 (CDK13, Homo sapiens, UniProt Q14004); concentration not given, gene name CDC2L5).
With `CN1C(N)=N[C@](C)(c2cc(NC(=O)c3ccc(F)cn3)ccc2F)CS1(=O)=O` the inhibition was 80% (Voltage-dependent P/Q-type calcium channel subunit alpha-1A; ion current, antagonist; 30 µM).
The labelling of `Cc1cc(C(C)N(Cc2c(C)noc2C)C(=O)CCl)c(C)o1` (stereo not shown) is reported as 20.8% (UCHL1; covalent, intact protein LC-MS; 12.5 µM).
`CCn1cc(C(=O)O)c(=O)c2cc(F)c(N3CCNCC3)nc21` has an IC30 of greater than 30 µM (Voltage-dependent P/Q-type calcium channel subunit alpha-1A; ion current, antagonist, automated patch clamp).
The labelling of `CNC(=O)Cn1ccc2ccc(NC(=O)C(C#N)=Cc3ccco3)cc21` is reported as 8.83% (UCHL1; covalent, intact protein LC-MS; 12.5 µM).
With `CCC(C)n1ncn(-c2ccc(N3CCN(c4ccc(OCC5COC(Cn6cncn6)(c6ccc(Cl)cc6Cl)O5)cc4)CC3)cc2)c1=O` (stereo not shown) the inhibition was -0.08% (Trypanosoma cruzi; reporter translation, Renilla luciferase mRNA translation; cell-free extract; 40 µM; reference: DMSO).
Under “cooperativity factor alpha”, `Oc1ccc([C@@H]2c3c(O)cc(O)cc3[C@@H]3c4c(cc(O)c5c4[C@@H]2[C@H](c2ccc(O)cc2)[C@H]5c2cc(O)cc4c2[C@@H](c2cc(O)cc(O)c2)[C@H](c2ccc(O)cc2)O4)O[C@H]3c2ccc(O)cc2)cc1` is recorded as 5.7 (Alpha-amylase 1A (AMY1A, Homo sapiens, UniProt P0DUB6); enzyme activity, inhibitor; salivary).
`CCCS(=O)(=O)Nc1ccc(F)c(C(=O)c2cn(C(=O)OCc3cc(P(=O)(O)O)ccc3OP(=O)(O)O)c3ncc(-c4ccc(Cl)cc4)cc23)c1F`: “drug formation rate” 1.15 pmol/min (Alkaline phosphatase, placental type (Homo sapiens, UniProt P05187); substrate; 100 µM, pH 7.6, 37 °C).
For `Nc1ncnc2c1ncn2[C@@H]1O[C@H](COP(=O)(O)CP(=O)(O)OP(=O)(O)O)[C@@H](O)[C@H]1O`, the specific binding was 97 CCPM and 80 CCPM (P2X purinoceptor 1 (P2RX1, Homo sapiens, UniProt P51575, R292A); saturation binding; HEK293; 52 nM).
Under “probe labeling fluorescence”, `C#CCCC1(CC[C@H](NC(=O)NCCCCCCNC(=O)NCCN)C(N)=O)N=N1` is recorded as 1780 a.u. (Peptidyl-prolyl cis-trans isomerase FKBP1A (FKBP1A, Homo sapiens, UniProt P62942); photoaffinity labeling, in-gel fluorescence, measured: Alexa Fluor 647 click label; 40 µM, UV irradiation 365 nm; higher = more labeling).
For `CCCC[C@H](NC(=O)[C@H](C)c1c(C)[nH]c2ccc(O)cc12)c1ncc(-c2cc3ccccc3nc2OC)[nH]1`, the effect was 77% (Prostaglandin E2 receptor EP1 subtype (PTGER1, Homo sapiens, UniProt P34995); 10 µM).
Under “probe labeling increase”, `Nc1nc(CCc2ccc(Cl)cc2)nn1S(=O)(=O)c1ccc2ncsc2c1` is recorded as 2.2 fold (Lysophospholipase-like protein 1 (Mus musculus, UniProt Q3UFF7); enzyme activity, activator, gel-based ABPP; purified protein; concentration not given, together with: FP-rhodamine; reference: DMSO).
`O=S(=O)(NC1CCCC12OCCO2)c1cccc(Cl)c1O` (stereo not shown) has a remaining activity of 97% (malate dehydrogenase; enzyme activity, inhibitor; 200 µM, pH 7.0, 1% DMSO, aggregation counter-screen).
The inhibition of `Nc1nc2ccc(OC(F)(F)F)cc2s1` is reported as 0% (Voltage-dependent P/Q-type calcium channel subunit alpha-1A; ion current, antagonist; HEK293; 3 µM).
`COc1cc(-c2cc(C(C)=O)n3ccccc23)cc(OC)c1Cn1ccnc1` gave a ΔTm of 5.8 °C (Bromodomain-containing protein 4, BD1 (BRD4, Homo sapiens, UniProt O60885)).
`CCC1(O)CCCN(C(=O)c2ccc(-c3ccc(F)c(NC(=O)CCl)c3)cc2)C1` (stereo not shown) has a protein adduct of 97.5% (DNA dC->dU-editing enzyme APOBEC-3A (Homo sapiens, UniProt P31941); covalent modifier, intact protein mass spectrometry, measured: adduct +26309 Da; 125 µM, 1 h, 5-fold molar excess).
`O=C(O)c1ccc(O)cc1` gave a current density of 20.7 pA/pF and 36 pA/pF and 21.7 pA/pF and 50.7 pA/pF and 19.2 pA/pF and 24.8 pA/pF and 30.6 pA/pF (BEST1; whole-cell patch clamp; HEK293 transiently expressing channel; concentration not given, membrane potential 60 mV).
The inhibition of `CC[C@@H]1[C@H](F)C(=O)N[C@@H]1COc1nccc2cc(C(N)=O)c(OC)cc12` is reported as -18.6% (Protein-tyrosine kinase 2-beta (PTK2B, Homo sapiens, UniProt Q14289); ATP probe binding, KiNativ profiling, measured: activation loop probe site; THP-1 cell lysate; 0.2 mM).
`O=C1CC2(CCCC2)CC(=O)N1CCCCN1CCN(c2ncccn2)CC1` has an inhibition of 7% (Voltage-dependent P/Q-type calcium channel subunit alpha-1A; ion current, antagonist; HEK293; 3 µM).
`CN(C(=O)n1cnc(-c2ccc[n+]([O-])c2)c1)C1CCCCC1` gave an ED50 of 0.096 mg/kg (Fatty-acid amide hydrolase 1 (Faah, Rattus norvegicus, UniProt P97612); enzyme activity, inhibitor; rat, brain; oral, 1 h).
With `C#CC(C)(C)NC(=O)CN(c1ccc(OC)cc1)S(=O)(=O)c1ccccc1` the labelling was 18.9% (UCHL1; covalent, intact protein LC-MS; 12.5 µM).
For `O=C(O)C1=CCNCC1`, the current density was 35 pA/pF and 68.7 pA/pF and 72.4 pA/pF and 84.5 pA/pF and 24.5 pA/pF and 33.7 pA/pF (BEST1; whole-cell patch clamp; HEK293 transiently expressing channel; concentration not given, membrane potential 60 mV).
`C=CC(=O)N1CCN(c2nc(OC[C@@H]3CCCN3C)nc3c(F)c(-c4nc(N)cc(C)c4C(F)(F)F)c(Cl)cc23)[C@@H](C)C1`: “association rate constant” 137000 ± 8100 M⁻¹ s⁻¹ (GTPase KRas, GDP-bound (KRAS, Homo sapiens, UniProt P01116, Q61H); binding, surface plasmon resonance).
Under “koff slow phase”, `CC[C@H](C)[C@@H]1NC(=O)[C@H](C)NC(=O)[C@H]([C@@H](C)CC)NC(=O)[C@H](CCC(N)=O)NC(=O)[C@H](C)NC(=O)[C@H](CCCNC(=N)N)NC(=O)[C@H](C(C)C)NC(=O)[C@H](CC(C)C)NC(=O)[C@H](CCC(=O)O)NC(=O)[C@H](CCCNC(=N)N)NC(=O)CNC(=O)[C@@H](NC(=O)[C@H](CC(C)C)NC(=O)[C@H](CCCCN)NC(=O)[C@@H](NC(=O)[C@@H](NC(=O)[C@H](CCC(=O)O)NC(=O)[C@H](CCC(=O)O)NC(=O)[C@H](CCSC)NC(=O)[C@H](Cc2c[nH]c3ccccc23)NC(=O)[C@H](CO)NC(=O)[C@@H](N)CC(=O)O)C(C)C)[C@@H](C)CC)CSSC[C@@H]2NC(=O)[C@@H](NC(=O)[C@H](CCCCN)NC(=O)[C@H](CC(N)=O)NC(=O)[C@H](C)NC(=O)[C@H](CC(C)C)NC(=O)[C@H](C)NC(=O)[C@H](CO)NC(=O)[C@H](Cc3ccc(O)cc3)NC(=O)[C@H](CC(C)C)NC(=O)[C@H](CCC(N)=O)NC(=O)c3ccc(-c4c5ccc(=[N+](C)C)cc-5oc5cc(N(C)C)ccc45)c(C(=O)[O-])c3)CSSC[C@H](NC(=O)CNC(=O)[C@H](C(C)C)NC(=O)[C@H](Cc3c[nH]cn3)NC2=O)C(=O)N[C@@H]([C@@H](C)O)C(=O)N[C@@H](CCCCN)C(=O)N[C@@H](CCCNC(=N)N)C(=O)N[C@@H](CO)C(=O)N[C@@H](CC(C)C)C(=O)N[C@@H](C)C(=O)N[C@@H](CCCNC(=N)N)C(=O)N[C@@H](Cc2ccccc2)C(=O)N[C@H](C(=O)O)CSSC[C@@H](C(=O)NCC(=O)N[C@@H](CCSC)C(=O)N[C@@H](CO)C(=O)N[C@H](C(=O)N[C@@H](Cc2c[nH]c3ccccc23)C(=O)N[C@@H](CO)C(=O)O)[C@@H](C)O)NC1=O` is recorded as 0.000927 s⁻¹ (Relaxin receptor 1 (RXFP1, Homo sapiens, UniProt Q9HBX9, F76A/Y80A); NanoBRET dissociation; infinite dilution, together with: 10 µM relaxin).
For `CC(Cc1c(Cl)cccc1Cl)NS(=O)(=O)c1cnn(C)c1C(=O)O` (stereo not shown), the remaining activity was 93% (malate dehydrogenase; enzyme activity, inhibitor; 200 µM, pH 7.0, 1% DMSO, aggregation counter-screen).
With `COc1ccc(C=C(C#N)C(=O)Nc2ccc3c(c2)OCCO3)cc1O` the labelling was 13.5% (UCHL1; covalent, intact protein LC-MS; 12.5 µM).
Under “normalised MST signal”, `[H]/N=C(/N)NCC(=O)O` is recorded as -0.0623 (Sodium- and chloride-dependent taurine transporter (SLC6A6, Homo sapiens, UniProt P31641, L306A); binding, microscale thermophoresis; 61 nM, room temperature, together with: 50 nM labelled protein; higher = more binding).
For `Cc1cc(Oc2ncccc2CN2CCN(c3ccc([N+](=O)[O-])cc3Cl)CC2)ccc1-c1c(C)c(=O)[nH]c(=O)n1C`, the selectivity ratio was 4 (Alpha-2C adrenergic receptor (ADRA2C, Homo sapiens, UniProt P18825); binding, radioligand binding; together with: [3H]rauwolscine; reference: Ki alpha2B over Ki alpha2C).
For `C=CCNc1oc(-c2ccc(S(=O)(=O)N3CCC(C)CC3)cc2)nc1C#N`, the labelling was 14% (UCHL1; covalent, intact protein LC-MS; 12.5 µM).
For `CCC(NC(=O)CCc1c(C)c2cc(Cl)c(O)cc2oc1=O)C(=O)O` (stereo not shown), the luminescence was 48700 a.u. (Beta-1,4-galactosyltransferase 1 (B4GALT1, Homo sapiens, UniProt P15291); enzyme activity, inhibitor, UDP-Glo; 10 µM; lower means stronger inhibition).
The remaining binding of `C=CC(=O)N1CCC(COCC(=O)N2CCN(c3nc(-c4cnc(N)nc4C(F)F)nc(N4CCOC[C@@H]4C)n3)CC2)CC1` is reported as 100% (Serine/threonine-protein kinase PAK 1 (PAK1, Homo sapiens, UniProt Q13153); KINOMEscan; 1 µM).
